Measured values collected from several papers.
Compare with care: the assays were run in different laboratories. Values joined by “and” are separate records of one study, mostly repeats; a detail may differ. Numbers after ± are the reported error.
High affinity choline transporter 1: High affinity choline transporter 1 (Rattus norvegicus, UniProt Q9JMD7)
Sequence of UniProt D0VWV4 (whole entry, looked up): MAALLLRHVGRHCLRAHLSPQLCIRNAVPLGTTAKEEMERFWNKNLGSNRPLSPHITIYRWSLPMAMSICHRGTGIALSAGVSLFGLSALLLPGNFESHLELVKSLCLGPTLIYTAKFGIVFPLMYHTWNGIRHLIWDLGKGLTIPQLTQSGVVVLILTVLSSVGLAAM
Sequence of UniProt P06276 (whole entry, looked up): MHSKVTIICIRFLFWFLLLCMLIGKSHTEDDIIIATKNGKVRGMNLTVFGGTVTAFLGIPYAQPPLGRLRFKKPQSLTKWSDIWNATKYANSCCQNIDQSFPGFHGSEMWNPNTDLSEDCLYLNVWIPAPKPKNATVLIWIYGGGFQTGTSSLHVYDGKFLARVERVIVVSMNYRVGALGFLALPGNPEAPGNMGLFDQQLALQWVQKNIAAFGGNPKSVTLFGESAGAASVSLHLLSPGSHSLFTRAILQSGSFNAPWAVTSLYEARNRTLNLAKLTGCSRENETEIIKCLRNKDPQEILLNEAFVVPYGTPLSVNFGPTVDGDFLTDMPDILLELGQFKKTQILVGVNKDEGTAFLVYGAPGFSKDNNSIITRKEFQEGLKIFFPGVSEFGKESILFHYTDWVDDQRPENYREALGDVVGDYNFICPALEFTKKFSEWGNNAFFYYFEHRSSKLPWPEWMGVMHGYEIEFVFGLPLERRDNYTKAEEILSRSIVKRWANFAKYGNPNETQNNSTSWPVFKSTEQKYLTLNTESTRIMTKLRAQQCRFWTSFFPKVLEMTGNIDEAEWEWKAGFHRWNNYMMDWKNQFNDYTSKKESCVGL
Sequence of UniProt Q007T0 (whole entry, looked up): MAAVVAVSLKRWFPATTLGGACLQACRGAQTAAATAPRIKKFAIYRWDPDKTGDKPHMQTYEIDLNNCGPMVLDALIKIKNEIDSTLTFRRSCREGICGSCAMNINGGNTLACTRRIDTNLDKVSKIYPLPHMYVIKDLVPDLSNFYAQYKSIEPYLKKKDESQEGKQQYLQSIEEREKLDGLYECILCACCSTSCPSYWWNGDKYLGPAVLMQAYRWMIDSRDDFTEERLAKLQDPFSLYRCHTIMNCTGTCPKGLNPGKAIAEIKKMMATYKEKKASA
Sequence of UniProt A5GZW8 (whole entry, looked up): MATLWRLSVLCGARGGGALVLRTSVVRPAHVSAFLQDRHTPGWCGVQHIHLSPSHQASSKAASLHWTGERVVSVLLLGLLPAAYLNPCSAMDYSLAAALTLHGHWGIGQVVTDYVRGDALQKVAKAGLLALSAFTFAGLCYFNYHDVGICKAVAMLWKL
Sequence of UniProt Q9JMD7 (whole entry, looked up): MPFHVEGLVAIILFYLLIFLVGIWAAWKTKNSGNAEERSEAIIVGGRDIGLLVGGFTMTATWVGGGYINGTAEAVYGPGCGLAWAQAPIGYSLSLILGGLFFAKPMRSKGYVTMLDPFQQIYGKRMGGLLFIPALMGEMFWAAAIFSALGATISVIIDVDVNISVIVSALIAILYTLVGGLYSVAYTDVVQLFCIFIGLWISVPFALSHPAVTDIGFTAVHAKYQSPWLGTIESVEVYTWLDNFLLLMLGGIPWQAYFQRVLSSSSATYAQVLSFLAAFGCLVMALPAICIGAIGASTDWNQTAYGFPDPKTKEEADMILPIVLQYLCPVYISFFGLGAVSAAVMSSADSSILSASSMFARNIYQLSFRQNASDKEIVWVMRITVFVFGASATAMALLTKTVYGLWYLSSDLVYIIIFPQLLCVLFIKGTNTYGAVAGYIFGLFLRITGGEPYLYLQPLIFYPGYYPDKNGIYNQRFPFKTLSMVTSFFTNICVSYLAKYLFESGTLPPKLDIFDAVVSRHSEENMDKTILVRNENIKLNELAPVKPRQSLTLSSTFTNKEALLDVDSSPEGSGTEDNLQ
Sequence of UniProt O42275 (whole entry, looked up): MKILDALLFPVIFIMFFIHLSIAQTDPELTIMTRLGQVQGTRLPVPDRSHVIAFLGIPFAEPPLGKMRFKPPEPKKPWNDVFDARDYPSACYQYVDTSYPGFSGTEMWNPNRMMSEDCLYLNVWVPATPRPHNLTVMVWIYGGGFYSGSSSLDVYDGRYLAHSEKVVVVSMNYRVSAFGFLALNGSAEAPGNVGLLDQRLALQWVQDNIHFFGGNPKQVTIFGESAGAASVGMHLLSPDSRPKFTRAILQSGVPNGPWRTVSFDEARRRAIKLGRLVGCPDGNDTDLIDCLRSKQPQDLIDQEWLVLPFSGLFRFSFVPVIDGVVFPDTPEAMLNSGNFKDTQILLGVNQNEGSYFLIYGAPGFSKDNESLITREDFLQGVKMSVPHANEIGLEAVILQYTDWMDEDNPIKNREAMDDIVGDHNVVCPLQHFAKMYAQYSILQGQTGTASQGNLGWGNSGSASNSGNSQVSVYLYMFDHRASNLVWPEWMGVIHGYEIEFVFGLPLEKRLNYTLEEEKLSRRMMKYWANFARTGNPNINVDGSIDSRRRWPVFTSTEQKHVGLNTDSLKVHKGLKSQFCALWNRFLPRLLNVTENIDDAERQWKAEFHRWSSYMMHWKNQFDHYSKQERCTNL
Sequence of UniProt P35367 (whole entry, looked up): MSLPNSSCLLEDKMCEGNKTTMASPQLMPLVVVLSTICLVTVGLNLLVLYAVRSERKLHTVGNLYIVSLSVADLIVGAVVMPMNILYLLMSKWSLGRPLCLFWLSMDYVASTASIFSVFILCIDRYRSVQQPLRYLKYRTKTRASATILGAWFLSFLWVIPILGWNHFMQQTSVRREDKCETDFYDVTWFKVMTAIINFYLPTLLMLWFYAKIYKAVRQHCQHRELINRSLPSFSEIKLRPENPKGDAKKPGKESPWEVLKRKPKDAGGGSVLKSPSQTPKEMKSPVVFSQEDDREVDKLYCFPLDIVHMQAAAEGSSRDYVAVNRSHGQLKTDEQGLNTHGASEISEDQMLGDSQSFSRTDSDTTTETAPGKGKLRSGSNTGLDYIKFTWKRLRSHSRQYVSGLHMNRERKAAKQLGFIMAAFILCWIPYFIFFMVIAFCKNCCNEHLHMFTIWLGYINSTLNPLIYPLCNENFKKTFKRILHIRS
Sequence of UniProt Q14973 (whole entry, looked up): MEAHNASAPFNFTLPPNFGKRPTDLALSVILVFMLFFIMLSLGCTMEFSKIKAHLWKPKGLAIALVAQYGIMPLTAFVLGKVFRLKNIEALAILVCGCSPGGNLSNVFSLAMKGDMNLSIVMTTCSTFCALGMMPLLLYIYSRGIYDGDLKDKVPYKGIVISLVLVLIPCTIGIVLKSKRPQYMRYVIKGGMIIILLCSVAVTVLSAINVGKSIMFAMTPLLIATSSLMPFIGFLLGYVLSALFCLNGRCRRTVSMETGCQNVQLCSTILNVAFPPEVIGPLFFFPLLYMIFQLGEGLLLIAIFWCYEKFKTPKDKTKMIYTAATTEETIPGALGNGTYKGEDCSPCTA
Sequence of UniProt Q62351 (whole entry, looked up): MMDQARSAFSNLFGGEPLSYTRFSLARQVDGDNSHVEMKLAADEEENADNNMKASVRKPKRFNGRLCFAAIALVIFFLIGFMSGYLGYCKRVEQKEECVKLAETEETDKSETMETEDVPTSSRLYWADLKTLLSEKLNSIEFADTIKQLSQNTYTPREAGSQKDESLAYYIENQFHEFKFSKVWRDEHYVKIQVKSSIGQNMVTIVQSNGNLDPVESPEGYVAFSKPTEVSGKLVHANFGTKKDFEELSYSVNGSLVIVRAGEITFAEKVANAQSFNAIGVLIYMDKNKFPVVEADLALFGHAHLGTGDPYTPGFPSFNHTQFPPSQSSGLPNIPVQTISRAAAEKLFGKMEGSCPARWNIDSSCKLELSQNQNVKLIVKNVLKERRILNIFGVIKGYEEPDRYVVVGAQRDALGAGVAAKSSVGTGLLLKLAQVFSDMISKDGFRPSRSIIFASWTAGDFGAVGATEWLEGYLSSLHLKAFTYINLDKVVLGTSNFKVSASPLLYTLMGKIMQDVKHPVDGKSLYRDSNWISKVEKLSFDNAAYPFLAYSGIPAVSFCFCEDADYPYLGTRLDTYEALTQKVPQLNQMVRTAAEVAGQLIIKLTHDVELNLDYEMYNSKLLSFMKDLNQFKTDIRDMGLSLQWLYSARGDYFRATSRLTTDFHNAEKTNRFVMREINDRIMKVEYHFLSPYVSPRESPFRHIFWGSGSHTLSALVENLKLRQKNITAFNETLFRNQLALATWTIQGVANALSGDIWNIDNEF
Sequence of UniProt P00942 (whole entry, unmodified, looked up): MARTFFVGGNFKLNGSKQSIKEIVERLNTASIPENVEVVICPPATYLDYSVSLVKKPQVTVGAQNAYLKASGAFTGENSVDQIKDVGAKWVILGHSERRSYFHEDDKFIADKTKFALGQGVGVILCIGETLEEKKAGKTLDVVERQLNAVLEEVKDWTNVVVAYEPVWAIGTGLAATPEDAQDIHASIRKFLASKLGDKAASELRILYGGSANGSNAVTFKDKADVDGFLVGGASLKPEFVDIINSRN
Sequence of UniProt P31152 (whole entry, looked up): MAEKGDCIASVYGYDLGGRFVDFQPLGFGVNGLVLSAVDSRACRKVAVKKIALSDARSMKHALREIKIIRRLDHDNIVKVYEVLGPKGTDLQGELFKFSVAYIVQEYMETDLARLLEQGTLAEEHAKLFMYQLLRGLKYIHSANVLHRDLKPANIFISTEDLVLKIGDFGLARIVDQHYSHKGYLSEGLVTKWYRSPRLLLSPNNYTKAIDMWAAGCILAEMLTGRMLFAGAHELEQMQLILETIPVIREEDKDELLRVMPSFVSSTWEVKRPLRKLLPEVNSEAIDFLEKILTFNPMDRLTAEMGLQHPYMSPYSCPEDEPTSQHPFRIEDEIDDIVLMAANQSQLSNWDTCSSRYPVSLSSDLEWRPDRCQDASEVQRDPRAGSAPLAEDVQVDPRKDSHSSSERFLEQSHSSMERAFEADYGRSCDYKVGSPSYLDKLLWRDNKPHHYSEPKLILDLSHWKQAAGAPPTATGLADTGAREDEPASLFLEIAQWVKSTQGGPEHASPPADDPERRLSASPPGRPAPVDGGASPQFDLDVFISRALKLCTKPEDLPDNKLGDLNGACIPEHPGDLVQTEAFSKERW

SMILES = C[C@H](CCC(=O)N[C@@H](CCC(=O)OC[C@H]1O[C@@H](n2cc(F)c(=O)[nH]c2=O)C[C@@H]1O)C(=O)O)[C@H]1CC[C@H]2[C@@H]3[C@H](O)C[C@@H]4C[C@H](O)CC[C@]4(C)[C@H]3CC[C@]12C; target = SLC10A1 (Homo sapiens, UniProt Q14973); assay = uptake, substrate; system = HEK293 expressing NTCP; how to read = baseline: taurocholate; endpoint = normalised Vmax; result = 0.0185
SMILES = O=C(Nc1cnccc1Cl)N1CCN(Cc2ccc3c(c2)OC(F)(F)O3)CC1; target = High affinity choline transporter 1; assay = radioligand binding; conditions = 10 µM, rat transporter, added: [3H]hemicholinium-3; endpoint = inhibition of binding; result = -2%
SMILES = Nc1ccn([C@H]2C[C@H](O)[C@@H](COP(=O)(O)OP(=O)(O)OP(=O)(O)O)O2)c(=O)n1; target = Gag-Pol polyprotein, reverse transcriptase (gag-pol, Human immunodeficiency virus type 1 group M subtype B, UniProt P04585, K653R); assay = nucleotide misincorporation, steady-state kinetics; conditions = K66R RT, added: matched template/primer, template T; endpoint = kcat; result = 0.109 ± 0.0215 s⁻¹
SMILES = CN(C(=O)n1cnc(-c2ccc[n+]([O-])c2)c1)C1CCCCC1; target = HRH1 (Homo sapiens, UniProt P35367); assay = radioligand binding; conditions = 50 µM, added: [3H]pyrilamine; endpoint = inhibition; result = 11%
SMILES = C=C(CN(C(=O)c1c(C(F)F)nn(C)c1F)C1CC1)c1ccc(Cl)cc1Cl; target = SDHD/SDHC/SDHB (Sus scrofa, UniProt A5GZW8+D0VWV4+Q007T0); assay = enzyme activity, inhibitor, DCIP reduction; system = pig; conditions = 0.06 µM, added: DCIP 40 µM; endpoint = reaction velocity; result = 0.0141 µM/s and 0.0135 µM/s and 0.0137 µM/s
SMILES = CC[C@@H](C)[C@@H](NC(=O)[C@@H](Cc1ccc(O)cc1)NC(=O)[C@H]1CCCN1C(=O)[C@@H](CCCNC(=N)N)NC(=O)[C@H](N)Cc1c[nH]cn1)C(=O)N[C@H](C)C(=O)N[C@H](Cc1c[nH]cn1)C(=O)N[C@H](CCCNC(=N)N)C(=O)N[C@H](CCCCNC(=O)c1cccc(S(=O)(=O)F)c1)C(=O)N[C@H](Cc1ccc(O)cc1)C(=O)N[C@H](CO)C(=O)N[C@H](Cc1ccccc1)C(N)=O; target = Transferrin receptor protein 1 (Tfrc, Mus musculus, UniProt Q62351); assay = flow cytometry; system = RAW264.7; conditions = 6 h, pH 7.4, unit not given; how to read = baseline: 0 h; endpoint = surface TFRC expression; result = 0.904
SMILES = Nc1c(S(=O)(=O)O)cc(Nc2ccc(Nc3nc(Cl)nc(Nc4cccc(S(=O)(=O)O)c4)n3)c(S(=O)(=O)O)c2)c2c1C(=O)c1ccccc1C2=O; target = TGM2 (Homo sapiens, UniProt P21980); assay = enzyme activity, inhibitor; conditions = added: Triton X-100 0.02%; endpoint = potency; result = decreased
SMILES = CCN(C)C(=O)Oc1ccc(CCC(=O)N2CCC(CCCc3ccccc3)CC2)cc1OC; target = Cholinesterase (BCHE, Equus caballus, UniProt P81908); assay = Ellman; system = equine serum BuChE; how to read = baseline: AChE IC50 over BuChE IC50; endpoint = selectivity ratio; result = 2
SMILES = CO/N=C(\C(=O)N[C@@H]1C(=O)N2C(C(=O)O)=C(COC(C)=O)CS[C@H]12)c1csc(N)n1; target = Penicillin-binding protein 1A (pbpA, Streptococcus pneumoniae, UniProt Q8DR59); assay = inhibitor; endpoint = kinact/KI; result = 10000 ± 5000 M⁻¹ s⁻¹
SMILES = Clc1ccc(-c2ccccc2Cl)cc1; target = Androgen receptor (AR, Homo sapiens, UniProt P10275); assay = reporter gene, antagonist; conditions = 24 h, added: DHT 2 nM; endpoint = IC25; result = 40 nM
SMILES = Fc1ccc(Oc2ccnc3cc(Cl)cc(Cl)c23)cc1; target = PPARG (Homo sapiens, UniProt P37231); assay = reporter gene, agonist, β-lactamase reporter; system = HEK293-H cells; conditions = nominal concentration; how to read = baseline: cytotoxicity IC10 over EC10; endpoint = specificity ratio; result = 24.4
SMILES = CN1CCc2[nH]c3ccccc3c2CC1.O=C(O)/C=C/C(=O)O; target = Chrna7 (Rattus norvegicus, UniProt Q05941); assay = ion current, inhibitor, two-electrode voltage clamp; system = Xenopus laevis oocytes; conditions = 3 µM, rat receptor, added: acetylcholine 100 µM; endpoint = recovery time constant; result = 8.6 ± 0.2 s
SMILES = CC(C)(C)NCC(O)COc1ccccc1OCC1CCCO1 (stereo not shown); target = Cholinesterase (BCHE, Homo sapiens, UniProt P06276); conditions = concentration not given, Triton; endpoint = efficacy; result = -71.3 ± 26.6%
SMILES = Nc1nc2c(ncn2[C@@H]2O[C@@H]3COP(=O)(O)O[C@H]4[C@@H](O)[C@H](n5cnc6c(=O)[nH]c(N)nc65)O[C@@H]4COP(=O)(O)O[C@H]3[C@H]2O)c(=O)[nH]1; target = Cell cycle histidine kinase CckA, R374A; cytoplasmic region (Caulobacter vibrioides, UniProt Q9X688, R374A); assay = isothermal titration calorimetry; system = Caulobacter crescentus; conditions = concentration not given, 12 °C, added: ADP 5 mM; endpoint = binding enthalpy (ΔH); result = 1 kcal/mol
SMILES = O=C(O)COP(=O)(O)O; target = TPI1 (Saccharomyces cerevisiae, UniProt P00942, S211G); assay = enzyme activity, competitive inhibitor, GPDH/NADH-coupled; conditions = pH 7.5, 25 °C, ionic strength 0.1 NaCl, added: glyceraldehyde 3-phosphate substrate; how to read = baseline: mutant over wild type; endpoint = Ki ratio; result = 1.7
SMILES = CN1CCN(c2cc(-c3ccncc3)c(-c3ccc4ccccc4c3)nn2)CC1; target = NMBR (Homo sapiens, UniProt P28336); assay = antagonist, FLIPR; conditions = 10 µM; endpoint = inhibition; result = 25.7%
SMILES = [2H]c1c([2H])c([C@]2([2H])CCCN2C(=O)C(C)(C)Oc2ccc3cn[nH]c3c2)c([2H])c([2H])c1C([2H])([2H])[2H]; target = SNRK (Homo sapiens, UniProt Q9NRH2); assay = KINOMEscan; conditions = 1 µM; how to read = baseline: DMSO control; endpoint = remaining binding; result = 100%
SMILES = COc1cc(Nc2ncc(F)c(Nc3ccc4c(n3)NC(=O)C(C)(C)O4)n2)cc(OC)c1OC; target = MAPK4 (Homo sapiens, UniProt P31152); assay = binding, KINOMEscan; conditions = 10 µM, ERK4 kinase; endpoint = inhibition; result = 14%
SMILES = COc1cc(N)c(Cl)cc1C(=O)NC1CN2CCC1CC2 (stereo not shown); target = GPR3 (Homo sapiens, UniProt P46089); assay = β-arrestin recruitment, TANGO luminescence; conditions = concentration not given; how to read = baseline: basal luminescence; endpoint = log2 fold change; result = -0.06
SMILES = O=C(c1ccc(Cl)cc1)N1CCN2C(=O)N(OC(=O)N3CCOc4ccccc43)C(=O)C2C1 (stereo not shown); target = (Lyso)-N-acylphosphatidylethanolamine lipase (ABHD4, Homo sapiens, UniProt Q8TB40); assay = enzyme activity, inhibitor, MS-based ABPP; system = SW-620 in situ; conditions = 10 µM, 2 h, 37 °C; how to read = baseline: compound over DMSO, lower = stronger inhibition; endpoint = median ratio; result = 1.03
SMILES = C=C(F)c1sc(CNCCCNc2cc(O)c3ccccc3n2)c(C)c1Br; target = Cholinesterase (BCHE, Homo sapiens, UniProt P06276); conditions = concentration not given, Triton; endpoint = efficacy; result = -76.2 ± 9.21%
SMILES = O=C(Nc1cccnn1)N1CCC(=Cc2cccc(Oc3ccc(C(F)(F)F)cn3)c2)CC1; target = High affinity choline transporter 1; assay = radioligand binding; conditions = 10 µM, rat transporter, added: [3H]hemicholinium-3; endpoint = inhibition of binding; result = 2%
SMILES = COc1ccc(N2C(=O)N(c3c(C)cccc3Cl)Cc3cnc(Nc4ccc(C5CCN(C)CC5)cc4OC)nc32)nc1; target = HCK (Homo sapiens, UniProt P08631); assay = kinase activity; conditions = 0.5 µM; endpoint = inhibition; result = 99%
SMILES = O=C1CN(C(=O)CCn2ccnc2)CC(O)CN1CCc1ccccc1 (stereo not shown); target = Cholinesterase (BCHE, Homo sapiens, UniProt P06276); assay = inhibitor; conditions = 0.5 µM; endpoint = apparent Vmax; result = 0.34 ± 0.02 µM/min
SMILES = CCOC(=O)COc1ccc2c(=O)c3ccccc3oc2c1; target = ache (Electrophorus electricus, UniProt O42275); assay = enzyme activity; conditions = 3.36 µM, added: substrate 1.73 mM; how to read = higher = faster reaction; endpoint = reaction velocity; result = 0.0014 a.u.
SMILES = C[C@H]1CN(c2n[nH]c3nc(N[C@H]4CC[C@H](NS(=O)(=O)CCC(F)(F)F)CC4)ncc23)CCO1; target = Dolichyl-diphosphooligosaccharide--protein glycosyltransferase subunit 1 (Homo sapiens, UniProt P04843); assay = Kinobeads competition, item: RPN1; conditions = 0.032 µM, unit not given; how to read = baseline: vehicle; endpoint = remaining binding; result = 1.03
SMILES = CC(=O)O[C@H]1C[C@@H]2CC[C@@H]3[C@H](CC[C@@]4(C)[C@H]3C[C@H]([N+]3(C)CCCCC3)[C@@H]4OC(C)=O)[C@@]2(C)C[C@@H]1[N+]1(C)CCCCC1; target = Cholinesterase (BCHE, Homo sapiens, UniProt P06276); conditions = concentration not given, Triton; endpoint = efficacy; result = -115 ± 9.21%
SMILES = OC[C@@H](O)c1ccccc1; target = uncharacterized protein (Streptomyces globisporus, UniProt Q8GMG2); assay = ester bond formation, substrate, HPLC; conditions = acceptor substrate; endpoint = Km; result = 3.5 mM

For quick reference, copied from above:
SMILES = CCN(C)C(=O)Oc1ccc(CCC(=O)N2CCC(CCCc3ccccc3)CC2)cc1OC; target = Cholinesterase (BCHE, Equus caballus, UniProt P81908); assay = Ellman; system = equine serum BuChE; how to read = baseline: AChE IC50 over BuChE IC50; endpoint = selectivity ratio; result = 2
SMILES = CC(=O)O[C@H]1C[C@@H]2CC[C@@H]3[C@H](CC[C@@]4(C)[C@H]3C[C@H]([N+]3(C)CCCCC3)[C@@H]4OC(C)=O)[C@@]2(C)C[C@@H]1[N+]1(C)CCCCC1; target = Cholinesterase (BCHE, Homo sapiens, UniProt P06276); conditions = concentration not given, Triton; endpoint = efficacy; result = -115 ± 9.21%
SMILES = Nc1c(S(=O)(=O)O)cc(Nc2ccc(Nc3nc(Cl)nc(Nc4cccc(S(=O)(=O)O)c4)n3)c(S(=O)(=O)O)c2)c2c1C(=O)c1ccccc1C2=O; target = TGM2 (Homo sapiens, UniProt P21980); assay = enzyme activity, inhibitor; conditions = added: Triton X-100 0.02%; endpoint = potency; result = decreased
SMILES = OC[C@@H](O)c1ccccc1; target = uncharacterized protein (Streptomyces globisporus, UniProt Q8GMG2); assay = ester bond formation, substrate, HPLC; conditions = acceptor substrate; endpoint = Km; result = 3.5 mM
